# Experimental data from different studies.
# Compare with care: the assays were run in different laboratories.
# U2AF2: U2AF2 148-342 (Homo sapiens, UniProt P26368)
# Sequence of UniProt P26368 (whole entry, looked up): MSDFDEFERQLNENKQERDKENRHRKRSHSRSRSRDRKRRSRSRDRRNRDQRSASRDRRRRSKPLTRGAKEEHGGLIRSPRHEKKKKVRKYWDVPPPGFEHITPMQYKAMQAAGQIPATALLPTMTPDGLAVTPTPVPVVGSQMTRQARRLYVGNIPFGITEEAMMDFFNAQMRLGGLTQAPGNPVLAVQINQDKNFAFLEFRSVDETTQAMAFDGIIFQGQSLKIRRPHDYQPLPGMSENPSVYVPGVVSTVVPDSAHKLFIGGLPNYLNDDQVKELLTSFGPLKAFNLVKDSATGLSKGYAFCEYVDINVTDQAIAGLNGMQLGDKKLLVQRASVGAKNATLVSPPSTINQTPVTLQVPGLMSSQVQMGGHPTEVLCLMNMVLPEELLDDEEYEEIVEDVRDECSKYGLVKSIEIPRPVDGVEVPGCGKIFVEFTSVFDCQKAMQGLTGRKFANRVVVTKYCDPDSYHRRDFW
# B1: RTT106 residues 1-67 (Saccharomyces cerevisiae, UniProt P40161); chain GHMMSKLFLDELPESLSRKIGTVVRVLPSSLEIFEELYKYALNENSNDRSGRHKKPRIDVSSDLLKTDEI
# B2: cooS 1-639 C41S (Rhodospirillum rubrum, UniProt P31896); chain MTHHDCAHCSSDACATEMLNLAEANSIETAWHRYEKQQPQSGFGSAGLCCRICLKGPCRIDPFGEGPKYGVCGADRDTIVARHLVRMIAAGTAAHSEHGRHIALAMQHISQGELHDYSIRDEAKLYAIAKTLGVATEGRGLLAIVGDLAAITLGDFQNQDYDKPCAWLAASLTPRRVKRLGDLGLLPHNIDASVAQTMSRTHVGCDADPTNLILGGLRVAMADLDGSMLATELSDALFGTPQPVVSAANLGVMKRGAVNIAVNGHNPMLSDIICDVAADLRDEAIAAGAAEGINIIGICCTGHEVMMRHGVPLATNYLSQELPILTGALEAMVVDVQCIMPSLPRIAECFHTQIITTDKHNKISGATHVPFDEHKAVETAKTIIRMAIAAFGRRDPNRVAIPAFKQKSIVGFSAEAVVAALAKVNADDPLKPLVDNVVNGNIQGIVLFVGCNTTKVQQDSAYVDLAKSLAKRNVLVLATGCAAGAFAKAGLMTSEATTQYAGEGLKGVLSAIGTAAGLGGPLPLVMHMGSCVDNSRAVALATALANKLGVDLSDLPLVASAPECMSEKALAIGSWAVTIGLPTHVGSVPPVIGSQIVTKLVTETAKDLVGGYFIVDTDPKSAGDKLYAAIQERRAGLGL
# B3: human CAP1; sequence looked up; chain ADMQNLVERLERAVGRLEAVSHTSDMHRGYADSPSKAGAAPYVQAFDSLLAGPVAEYLKISKEIGGDVQKHAEMVHTGLKLERALLVTASQCQQPAENKLSDLLAPISEQIKEVITFREKNRGSKLFNHLSAVSESIQALGWVAMAPKPGPYVKEMNDAAMFYTNRVLKEYKDVDKKHVDWVKAYLSIWTELQAYIKEFHTTGLAWSKTGPVAKELSGLPSGPSAGSCPPPPPPCPPPPPVSTISCSYESASRSSLFAQINQGESITHALKHVSDDMKTHKNPALKAQSGPVRSGPKPFSAPKPQTSPSPKRATKKEPAVLELEGKKWRVENQENVSNLVIEDTELKQVAYIYKCVNTTLQIKGKINSITVDNCKKLGLVFDDVVGIVEIINSKDVKVQVMGKVPTISINKTDGCHAYLSKNSLDCEIVSAKSSEMNVLIPTEGGDFNEFPVPEQFKTLWNGQKLVTTVTEIAG
# B4: Pah F80R (Rattus norvegicus, UniProt P04176); sequence looked up; chain MAAVVLENGVLSRKLSDFGQETSYIEDNSNQNGAISLIFSLKEEVGALAKVLRLFEENDINLTHIESRPSRLNKDEYEFRTYLDKRTKPVLGSIIKSLRNDIGATVHELSRDKEKNTVPWFPRTIQELDRFANQILSYGAELDADHPGFKDPVYRARRKQFADIAYNYRHGQPIPRVEYTEEEKQTWGTVFRTLKALYKTHACYEHNHIFPLLEKYCGFREDNIPQLEDVSQFLQTCTGFRLRPVAGLLSSRDFLGGLAFRVFHCTQYIRHGSKPMYTPEPDICHELLGHVPLFSDRSFAQFSQEIGLASLGAPDEYIEKLATIYWFTVEFGLCKEGDSIKAYGAGLLSSFGELQYCLSDKPKLLPLELEKTACQEYSVTEFQPLYYVAESFSDAKEKVRTFAATIPRPFSVRYDPYTQRVEVLDNTQQLKILADSINSEVGILCNALQKIKS
# B5: REC107 (Saccharomyces cerevisiae, UniProt P21651); chain MVARGRTDEISTDVSEANSEHSLMITETSSPFRSIFSHSGKVANAGALEESDKQILEWAGKLELESMELRENSDKLIKVLNENSKTLCKSLNKFNQLLEQDAATNGNVKTLIKDLASQIENQLDKVSTAMLSKGDEKKTKSDSSYRQVLVEEISRYNSKITRHVTNKQHETEKSMRCTQEMLFNVGSQLEDVHKVLLSLSKDMHSLQTRQTALEMAFREKADHAYDRPDVSLNGTTLLHDMDEAHDKQRKKSVPPPRMMVTRSMKRRRSSSPTLSTSQNHNSEDNDDASHRLKRAARTIIPWEELRPDTLESEL
# B6: GGPS1 R235C (Homo sapiens, UniProt O95749); sequence looked up; chain MEKTQETVQRILLEPYKYLLQLPGKQVRTKLSQAFNHWLKVPEDKLQIIIEVTEMLHNASLLIDDIEDNSKLRRGFPVAHSIYGIPSVINSANYVYFLGLEKVLTLDHPDAVKLFTRQLLELHQGQGLDIYWRDNYTCPTEEEYKAMVLQKTGGLFGLAVGLMQLFSDYKEDLKPLLNTLGLFFQIRDDYANLHSKEYSENKSFCEDLTEGKFSFPTIHAIWSRPESTQVQNILCQRTENIDIKKYCVHYLEDVGSFEYTRNTLKELEAKAYKQIDARGGNPELVALVKHLSKMFKEENE
# B7: PTDSS2 1-487 (Homo sapiens, UniProt Q9BVG9); sequence looked up; chain MRRGERRDAGGPRPESPVPAGRASLEEPPDGPSAGQATGPGEGRRSTESEVYDDGTNTFFWRAHTLTVLFILTCTLGYVTLLEETPQDTAYNTKRGIVASILVFLCFGVTQAKDGPFSRPHPAYWRFWLCVSVVYELFLIFILFQTVQDGRQFLKYVDPKLGVPLPERDYGGNCLIYDPDNETDPFHNIWDKLDGFVPAHFLGWYLKTLMIRDWWMCMIISVMFEFLEYSLEHQLPNFSECWWDHWIMDVLVCNGLGIYCGMKTLEWLSLKTYKWQGLWNIPTYKGKMKRIAFQFTPYSWVRFEWKPASSLRRWLAVCGIILVFLLAELNTFYLKFVLWMPPEHYLVLLRLVFFVNVGGVAMREIYDFMDDPKPHKKLGPQAWLVAAITATELLIVVKYDPHTLTLSLPFYISQCWTLGSVLALTWTVWRFFLRDITLRYKETRWQKWQNKDDQGSTVGNGDQHPLGLDEDLLGPGVAEGEGAPTPN
# B8: aqpZ 1-231 K155A (Escherichia coli, UniProt P60844); chain MFRKLAAECFGTFWLVFGGCGSAVLAAGFPELGIGFAGVALAFGLTVLTMAFAVGHISGGHFNPAVTIGLWAGGRFPAKEVVGYVIAQVVGGIVAAALLYLIASGKTGFDAAASGFASNGYGEHSPGGYSMLSALVVELVLSAGFLLVIHGATDAFAPAGFAPIAIGLALTLIHLISIPVTNTSVNPARSTAVAIFQGGWALEQLWFFWVVPIVGGIIGGLIYRTLLEKRD
# B9: TRPV5 (Oryctolagus cuniculus, UniProt Q9XSM3); sequence looked up; chain MGACPPKAKGPWAQLQKLLISWPVGEQDWEQYRDRVNMLQQERIRDSPLLQAAKENDLRLLKILLLNQSCDFQQRGAVGETALHVAALYDNLEAATLLMEAAPELAKEPALCEPFVGQTALHIAVMNQNLNLVRALLARGASVSARATGAAFRRSPHNLIYYGEHPLSFAACVGSEEIVRLLIEHGADIRAQDSLGNTVLHILILQPNKTFACQMYNLLLSYDEHSDHLQSLELVPNHQGLTPFKLAGVEGNTVMFQHLMQKRKHVQWTCGPLTSTLYDLTEIDSWGEELSFLELVVSSKKREARQILEQTPVKELVSFKWKKYGRPYFCVLASLYILYMICFTTCCIYRPLKLRDDNRTDPRDITILQQKLLQEAYVTHQDNIRLVGELVTVTGAVIILLLEIPDIFRVGASRYFGQTILGGPFHVIIITYASLVLLTMVMRLTNMNGEVVPLSFALVLGWCSVMYFARGFQMLGPFTIMIQKMIFGDLMRFCWLMAVVILGFASAFHITFQTEDPNNLGEFSDYPTALFSTFELFLTIIDGPANYSVDLPFMYCITYAAFAIIATLLMLNLFIAMMGDTHWRVAQERDELWRAQVVATTVMLERKMPRFLWPRSGICGYEYGLGDRWFLRVENHHDQNPLRVLRYVEAFKCSDKEDGQEQLSEKRPSTVESGMLSRASVAFQTPSLSRTTSQSSNSHRGWEILRRNTLGHLNLGLDLGEGDGEEVYHF
# B10: dnaD N70A (Bacillus subtilis, UniProt P39787); chain GSHMKKQQFIDMQEQGTSTIPNLLLTHYKQLGLNETELILLLKIKMHLEKGSYFPTPNQLQEGMSISVEECTARLRMFIQKGFLFIEECEDQNGIKFEKYSLQPLWGKLYEYIQLAQNQTQERKAEGEQKSLYTIFEEEFARPLSPLECETLAIWQDQDQHDAQLIKHALKEAVLSGKLSFRYIDRILFEWKKNGLKTVEQAKIHSQKFRRVQAKQNEPQKEYKRQVPFYNWLEQ
# B11: Aqp4 (Mus musculus, UniProt P55088-1); sequence looked up; chain MSDGAAARRWGKCGHSCSRESIMVAFKGVWTQAFWKAVSAEFLATLIFVLLGVGSTINWGGSENPLPVDMVLISLCFGLSIATMVQCFGHISGGHINPAVTVAMVCTRKISIAKSVFYIIAQCLGAIIGAGILYLVTPPSVVGGLGVTTVHGNLTAGHGLLVELIITFQLVFTIFASCDSKRTDVTGSIALAIGFSVAIGHLFAINYTGASMNPARSFGPAVIMGNWANHWIYWVGPIMGAVLAGALYEYVFCPDVELKRRLKEAFSKAAQQTKGSYMEVEDNRSQVETEDLILKPGVVHVIDIDRGEEKKGKDSSGEVLSSV
# B12: Gm4951 N86K (Mus musculus, UniProt Q3UED7); sequence looked up; chain MGQLFSSRRSEDQDLSSSFIEYLKECEKGINIIPHEIITSIEINMKKGNIQEVNSTVRDMLREIDNTPLNVALTGETGSGKSSFIKTLRGIGHEEGGAAHTGVTDKTKERHPYEHPKMPNVVFWDLPGTGSEDFQPKTYLEKMKFYEYDFFIIISATRFKKNDIDLAKAIGIMKKEFYFVRTQVDSDLRNEEDFKPQTFDREKVLQDIRLNCVNTFRENGIAEPPIFLISNKNVCHYDFPVLMDKLISDLPVFKRQNFMFSLPNITDSVIEKKRNFLRWKTWLEGFADGLLSFFLESDLETLEKSMKFYRTVFGVDDASLQRLARAWEIDQVDQVRAMIKSPAVFTPTDEETIQERLSRYNQEFCLANGYLLPKNHCREILYLKLYFLDMVTEDAKTLLKEICLRN
# B13: RNASE1 mature P114G/H119A (Bos taurus, UniProt P61823); sequence looked up; chain KETAAAKFERQHMDSSTSAASSSNYCNQMMKSRNLTKDRCKPVNTFVHESLADVQAVCSQKNVACKNGQTNCYQSYSTMSITDCRETGSSKYPNCAYKTTQANKHIIVACEGNGYVPVAFDASV
# Sequence of UniProt Q03555 (whole entry, looked up): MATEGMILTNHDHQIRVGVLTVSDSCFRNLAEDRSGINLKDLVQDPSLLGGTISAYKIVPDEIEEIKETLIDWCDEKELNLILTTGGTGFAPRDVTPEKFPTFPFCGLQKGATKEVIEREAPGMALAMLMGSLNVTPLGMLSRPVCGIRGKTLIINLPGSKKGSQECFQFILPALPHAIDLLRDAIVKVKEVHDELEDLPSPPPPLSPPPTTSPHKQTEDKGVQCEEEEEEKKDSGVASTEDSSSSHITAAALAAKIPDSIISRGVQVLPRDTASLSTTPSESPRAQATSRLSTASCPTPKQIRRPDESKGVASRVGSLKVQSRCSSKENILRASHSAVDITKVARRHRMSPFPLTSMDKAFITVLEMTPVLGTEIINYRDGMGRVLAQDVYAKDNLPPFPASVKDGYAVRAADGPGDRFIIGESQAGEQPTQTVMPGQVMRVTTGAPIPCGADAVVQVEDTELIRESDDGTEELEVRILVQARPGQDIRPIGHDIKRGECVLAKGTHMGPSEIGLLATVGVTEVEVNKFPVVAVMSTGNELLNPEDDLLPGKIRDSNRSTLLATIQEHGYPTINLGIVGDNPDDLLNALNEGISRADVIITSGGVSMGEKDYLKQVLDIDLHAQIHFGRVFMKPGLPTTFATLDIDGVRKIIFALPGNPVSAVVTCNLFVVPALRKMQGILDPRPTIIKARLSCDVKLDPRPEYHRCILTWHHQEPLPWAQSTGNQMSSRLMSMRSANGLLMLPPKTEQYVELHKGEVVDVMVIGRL
# Sequence of UniProt Q9T074 (whole entry, looked up): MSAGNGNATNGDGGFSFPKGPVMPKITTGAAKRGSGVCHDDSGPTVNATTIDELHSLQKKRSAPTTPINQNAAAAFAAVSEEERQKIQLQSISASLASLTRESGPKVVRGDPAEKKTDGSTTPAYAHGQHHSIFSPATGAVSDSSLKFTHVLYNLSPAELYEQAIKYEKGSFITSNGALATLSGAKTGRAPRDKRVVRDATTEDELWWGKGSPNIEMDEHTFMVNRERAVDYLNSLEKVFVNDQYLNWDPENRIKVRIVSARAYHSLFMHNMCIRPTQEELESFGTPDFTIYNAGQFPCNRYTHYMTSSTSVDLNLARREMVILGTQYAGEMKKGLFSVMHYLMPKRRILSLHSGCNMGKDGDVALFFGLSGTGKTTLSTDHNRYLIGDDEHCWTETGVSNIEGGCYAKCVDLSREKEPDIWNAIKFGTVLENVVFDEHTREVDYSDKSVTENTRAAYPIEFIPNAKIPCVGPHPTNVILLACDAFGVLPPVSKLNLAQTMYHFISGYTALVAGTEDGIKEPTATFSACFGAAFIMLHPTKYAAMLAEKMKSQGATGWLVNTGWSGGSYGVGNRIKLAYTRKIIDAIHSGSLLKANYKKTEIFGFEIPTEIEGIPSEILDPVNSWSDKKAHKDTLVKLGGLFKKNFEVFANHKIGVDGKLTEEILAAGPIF
Substance,tested on,test,system,conditions,scale,measurement,result
B1 (RTT106 residues 1-67),itself,NMR structure,,,,subunits per oligomer,2
"Gphn (Rattus norvegicus, UniProt Q03555)",itself,SEC,,,,subunits per oligomer,3
B2 (cooS 1-639 C41S),itself,SEC-MALS,,,,subunits per oligomer,2
B3 (human CAP1),CYB5R4 knockout human cells,"PP4 interaction, 3xFLAG-PP4C IP-MS",,concentration not given,reference: CYB5R4 KO over parental,log2 fold change,-0.33
B4 (Pah F80R),itself,SEC,,,,subunits per oligomer,4
B5 (REC107),itself,SEC-MALS,,,,subunits per oligomer,4
"RDVEMEEMIEQLQEKVHELERQNEVLKNRLISAKQQLQVQG (Rpgrip1l 104-144 (Mus musculus, UniProt Q8CG73); sequence looked up)",itself,SEC-MALS,,,,subunits per oligomer,2
UAUGUUACC (ssRNA),U2AF2,sequencing of bound RNA,RNA,motif only,,Kd,10.1 µM
B6 (GGPS1 R235C),itself,native MS,,,,subunits per oligomer,4
B7 (PTDSS2 1-487),itself,cryo-EM,,,,subunits per oligomer,2
B8 (aqpZ 1-231 K155A),itself,native MS,,,,subunits per oligomer,4
B9 (TRPV5),itself,SEC,,,,subunits per oligomer,4
"protein-L-isoaspartate O-methyltransferase, human",CYB5R4 knockout human cells,"PP4 interaction, 3xFLAG-PP4C IP-MS",,concentration not given,reference: CYB5R4 KO over parental,log2 fold change,0.95
"PCK1 (Arabidopsis thaliana, UniProt Q9T074)",itself,SEC,,,,subunits per oligomer,6
B10 (dnaD N70A),itself,SEC,,,,subunits per oligomer,2
GUUCUUCCA (ssRNA),U2AF2,sequencing of bound RNA,RNA,motif only,,Kd,9.93 µM
B11 (Aqp4),itself,native gel,,,,subunits per oligomer,4
B12 (Gm4951 N86K),itself,mass photometry,,,,subunits per oligomer,2
B13 (RNASE1 mature P114G/H119A),itself,SEC,,,,subunits per oligomer,2
HSS (UniProt A0A2P1M5T0),itself,SEC,,,,subunits per oligomer,4

# A few entries again:
Substance,tested on,test,system,conditions,scale,measurement,result
B12 (Gm4951 N86K),itself,mass photometry,,,,subunits per oligomer,2
B5 (REC107),itself,SEC-MALS,,,,subunits per oligomer,4
